{"data": "Results gathered from unrelated publications", "note": "Each numbered part is a random draw from the data of one study; scales do not carry over between parts."}
{"data": "Study 1", "target": "Sal-like protein 4, full length isoform A (SALL4, Homo sapiens, UniProt Q9UJQ4, residues 1-1053)", "method": "universal PBM", "molecule type": "double-stranded DNA, one strand shown", "matrix": "in vitro", "concentration": "600 nM", "setting": "8-mer, flanks averaged, mean of replicates", "reading": "higher = stronger binding", "chain of UniProt Q9UJQ4 (whole entry, looked up)": "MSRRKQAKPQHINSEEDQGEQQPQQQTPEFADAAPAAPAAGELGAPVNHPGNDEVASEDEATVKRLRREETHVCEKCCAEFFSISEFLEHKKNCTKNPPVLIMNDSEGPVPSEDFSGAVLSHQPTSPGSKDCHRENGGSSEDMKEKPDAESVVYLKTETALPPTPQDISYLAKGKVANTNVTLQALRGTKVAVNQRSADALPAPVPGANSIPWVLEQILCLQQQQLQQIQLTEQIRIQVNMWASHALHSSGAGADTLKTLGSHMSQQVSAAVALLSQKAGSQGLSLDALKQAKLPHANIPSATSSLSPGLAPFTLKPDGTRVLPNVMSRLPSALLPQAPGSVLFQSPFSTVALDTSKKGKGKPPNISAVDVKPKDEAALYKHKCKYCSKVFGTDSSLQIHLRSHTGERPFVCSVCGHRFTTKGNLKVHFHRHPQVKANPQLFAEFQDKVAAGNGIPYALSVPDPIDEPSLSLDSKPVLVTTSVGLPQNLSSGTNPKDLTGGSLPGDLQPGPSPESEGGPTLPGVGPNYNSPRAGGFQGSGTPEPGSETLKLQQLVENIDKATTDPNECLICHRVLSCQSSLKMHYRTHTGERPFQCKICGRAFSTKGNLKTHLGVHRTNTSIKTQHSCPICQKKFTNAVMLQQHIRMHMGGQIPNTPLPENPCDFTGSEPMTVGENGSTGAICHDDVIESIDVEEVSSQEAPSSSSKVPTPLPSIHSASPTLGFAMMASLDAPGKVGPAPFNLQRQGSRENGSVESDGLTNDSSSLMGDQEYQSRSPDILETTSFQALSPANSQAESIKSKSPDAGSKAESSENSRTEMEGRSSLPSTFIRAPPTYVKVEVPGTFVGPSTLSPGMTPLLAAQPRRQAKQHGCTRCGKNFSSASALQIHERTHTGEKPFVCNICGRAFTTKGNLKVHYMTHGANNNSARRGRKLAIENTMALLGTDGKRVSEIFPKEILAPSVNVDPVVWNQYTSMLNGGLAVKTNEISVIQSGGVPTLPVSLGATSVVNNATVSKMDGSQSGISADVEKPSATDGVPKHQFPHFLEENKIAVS"}
{"Sequence": "CCGTTCTA", "E-score": 0.0299}
{"Sequence": "AGAGAAGG", "E-score": -0.124}
{"Sequence": "ACGCAAAA", "E-score": 0.0392}
{"Sequence": "CCCCGGCG", "E-score": -0.382}
{"Sequence": "GTAACTAA", "E-score": 0.0961}
{"Sequence": "CAGAGATA", "E-score": 0.234}
{"Sequence": "ATCATAGG", "E-score": 0.152}
{"Sequence": "AGTTGAGA", "E-score": -0.0299}
{"data": "Study 2", "target": "Interferon regulatory factor 5, full length, phosphomimetic (IRF5, Homo sapiens, UniProt Q13568-2, residues 1-514, S451D/S453D/S456D/S462D)", "method": "protein-binding microarray", "molecule type": "double-stranded DNA, one strand shown", "matrix": "in vitro", "concentration": "940 nM top", "setting": "60-bp whole probe", "with": "salmon DNA 0.4 mg/ml", "baseline": "random background probes", "reading": "higher = stronger binding", "constant ends, left off below": "GCCTAGCAC … GTCTTGATTCGCTTGACGCTGCTG"}
{"Sequence": "GACGATTTCGGGTATCGTGACGTGCTA", "fitted relative affinity [z-score]": 0.748}
{"Sequence": "TCAGCTTTACTGATGGCACTGTGCTAG", "fitted relative affinity [z-score]": -0.5}
{"Sequence": "GACGATATCAGTTTCGAGTCGTGCTAG", "fitted relative affinity [z-score]": 6.24}
{"Sequence": "TTGGGTTTCGGTTCCGGTTAGTGCTAG", "fitted relative affinity [z-score]": 12.8}
{"Sequence": "GACCGTTTCGGGTATCGGGACGTGCTA", "fitted relative affinity [z-score]": 4.53}
{"Sequence": "TTAGATATCAGACTAGATTAGTGCTAG", "fitted relative affinity [z-score]": -0.246}
{"Sequence": "TTAGTTCTCCTACTGCTTTAGTGCTAG", "fitted relative affinity [z-score]": 0.549}
{"Sequence": "TTAGTTCTCAGTTTCGATTAGTGCTAG", "fitted relative affinity [z-score]": 8.55}
{"Sequence": "TTAGGTTTCCTACTGCCTTAGTGCTAG", "fitted relative affinity [z-score]": 0.736}
{"Sequence": "CTTACTTCCCAATTGTCTTTGTGCTAG", "fitted relative affinity [z-score]": 1.56}
{"data": "Study 3", "target": "Centromere-binding protein 1, full length, N-terminal tag (CBF1, Saccharomyces cerevisiae, UniProt P17106, residues 1-351)", "method": "protein-binding microarray", "molecule type": "double-stranded DNA, one strand shown", "matrix": "in vitro", "concentration": "0.8 µM", "setting": "whole 60-bp probe, no competitor", "reading": "higher = stronger binding", "constant ends, left off below": "… GTCTTGATTCGCTTGACGCTGCTG", "chain of UniProt P17106 (whole entry, looked up)": "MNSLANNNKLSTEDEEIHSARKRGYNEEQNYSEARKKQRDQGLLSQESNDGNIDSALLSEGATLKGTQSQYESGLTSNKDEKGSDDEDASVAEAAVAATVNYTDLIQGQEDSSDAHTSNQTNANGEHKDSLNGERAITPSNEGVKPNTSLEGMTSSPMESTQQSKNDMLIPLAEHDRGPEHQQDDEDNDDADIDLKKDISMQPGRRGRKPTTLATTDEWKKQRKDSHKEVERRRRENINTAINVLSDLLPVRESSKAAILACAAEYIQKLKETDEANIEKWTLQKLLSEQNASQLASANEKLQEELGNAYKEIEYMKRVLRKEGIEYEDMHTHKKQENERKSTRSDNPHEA"}
{"Sequence": "CTATTTTCTCAAGGTGACCTGTTGTATCACGTTTTC", "fluorescence intensity [a.u.]": 1170}
{"Sequence": "CCTAACTACTATAAGCACCTGAAATAGCTTCGTACA", "fluorescence intensity [a.u.]": 529}
{"Sequence": "CTAGATTAGTGCTTATGCCTGATGTACTGCCATTTC", "fluorescence intensity [a.u.]": 498}
{"Sequence": "TGTACGAAGCTATTTAACGTGTTTATAGTAGTTAGG", "fluorescence intensity [a.u.]": 521}
{"Sequence": "GAATTACTTCTAGACCACGCATTTAACAATAATTAG", "fluorescence intensity [a.u.]": 563}
{"Sequence": "GAATCGCCACAGAAGCGCGTGGACGCATGATCGTAG", "fluorescence intensity [a.u.]": 963}
{"Sequence": "GAATTTTTAAAAAAACCTCACATGTAGGCGATTTAG", "fluorescence intensity [a.u.]": 755}
{"Sequence": "GAATAAATACTTGAAAACGTGCATGTGATGATGTAG", "fluorescence intensity [a.u.]": 2650}
{"Sequence": "CTAAGACATCTTAGTCAGCTGAGACAAGAAAGGTTC", "fluorescence intensity [a.u.]": 2480}
{"Sequence": "CTAAAGTGTTTTCTTGATGTTACTGCCCATGAATTC", "fluorescence intensity [a.u.]": 558}
{"data": "Single results of other studies"}
{"Substance": "PhoQ, residues 284 288 289 292 302 303 TLSLKA", "target": "PhoP, residues 12 14 15 18 19 LHTVL (Escherichia coli, UniProt P23836)", "test": "Sort-seq, measured: YFP reporter", "system": "E. coli", "setting": "PhoQ-PhoP variant library, with: 10 µM Mg2+", "scale": "baseline: high Mg2+ state, higher = stronger signaling", "measurement": "fold induction", "value": 3.97}
{"note": "A few entries again (study 3):"}
{"Sequence": "CTATTTTCTCAAGGTGACCTGTTGTATCACGTTTTC", "fluorescence intensity [a.u.]": 1170}
{"Sequence": "CCTAACTACTATAAGCACCTGAAATAGCTTCGTACA", "fluorescence intensity [a.u.]": 529}
{"Sequence": "CTAGATTAGTGCTTATGCCTGATGTACTGCCATTTC", "fluorescence intensity [a.u.]": 498}
